Results pooled from the literature.
Each numbered part is a random draw from the data of one study; scales do not carry over between parts. Substitutions count along the parent as printed.

Set 1 — target: CCNF, cyclin fold, Cln2 fusion (human); technique: yeast growth competition, sequencing; sample: yeast; notes: strong parent motif; baseline: not given; reading: higher = stronger binding
Parent: SCAPER docking peptide (human); SNARRSLNFGGST
| Change | normalised enrichment score |
| --- | --- |
| G11I | 6.61 |
| N2M | 5.19 |
| A3C | 7.58 |
| F9C | 0.0665 |
| A3P | 7.63 |
| S1W | 8.02 |
| G10E | 7.16 |
| S6V | 8.2 |
| G10A | 7.12 |
| L7R | 0.889 |
| N2I | 6.06 |
| T13F | 7.3 |
| R5V | 1.23 |
| T13Q | 6.77 |
| L7I | 3.65 |
| S12V | 7.26 |
| L7V | 0.818 |

Set 2 — technique: DHFR PCA, deep sequencing; sample: yeast; with: (+)-ABA 0.11 µM; baseline: wild-type fitted maximum; reading: higher = stronger binding
Target: ABI1, truncated, D143A, DHFR fusion (Arabidopsis thaliana)
Notes: methotrexate growth selection, single substitutions
Parent: PYL1, truncated, DHFR fusion (Arabidopsis thaliana); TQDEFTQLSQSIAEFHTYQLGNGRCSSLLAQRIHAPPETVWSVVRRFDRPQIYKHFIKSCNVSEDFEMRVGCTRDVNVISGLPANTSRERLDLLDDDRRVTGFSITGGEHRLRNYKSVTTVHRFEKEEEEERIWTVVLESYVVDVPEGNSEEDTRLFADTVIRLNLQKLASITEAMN
| Change | relative binding score [%] |
| --- | --- |
| N85D | 19 |
| L28K | -4.95 |
| G21I | 16.1 |
| G108H | 1.82 |
| V142Q | 20.4 |
| L91Y | -3.87 |
| V70N | 2.73 |
| V161K | 4.08 |
| T39F | 1.21 |
| V70M | 4.32 |
| P146F | -7.87 |
| A175L | 12 |
| L156W | 8.98 |
| P83M | -0.393 |
| C72F | 3.63 |
| A30L | 20 |
| L112N | -6.8 |
| P37C | 3.11 |
| F66C | 7.29 |
| S140W | -3.06 |
| R132V | 30.6 |
| D65V | 1.92 |
| H55K | 22.2 |
| R90N | 1.93 |
| T120E | -7.94 |

Set 3 — technique: protein binding microarray; form: double-stranded DNA, one strand shown; sample: in vitro; tested at: not given; baseline: not given; reading: higher = stronger binding
Target: Histone acetyltransferase KAT6A, winged helix 2, GST fusion (KAT6A, Homo sapiens, UniProt Q92794, residues 85-181)
Notes: 8-mer, flanks averaged, mean of 2 arrays, mostly near background
Construct (chain): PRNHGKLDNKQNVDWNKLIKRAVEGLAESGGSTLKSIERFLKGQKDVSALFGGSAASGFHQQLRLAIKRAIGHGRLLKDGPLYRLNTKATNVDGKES
| Strand | E-score |
| --- | --- |
| GGGAGCAC | -0.00607 |
| CGATACAA | 0.0184 |
| GAACTTGA | 0.0898 |
| GGCACTTA | -0.0118 |
| CTAAGAGA | 0.00362 |
| AAAAGCGC | 0.0311 |
| CCCAGAAC | 0.0152 |
| ACCATCCG | 0.00168 |
| AACGTCTT | -0.178 |
| GCGCAACA | 0.132 |
| CATACATA | -0.0305 |
| TATATAAA | 0.199 |
| AGGCACCG | 0.0613 |
| CGTGTAAA | -0.0813 |
| AGCGCGCC | 0.116 |
| CAATTTCA | 0.00522 |
| GACCATCC | -0.056 |
| GTCGCAGA | 0.179 |
| TCACCAAA | 0.0662 |
| AAATGCGT | 0.0641 |
| ACATCCGG | 0.165 |
| CTACTAGC | 0.0762 |

Set 4 — technique: RNAcompete; form: RNA; sample: in vitro; tested at: 20 nM; notes: 7-mer, probes averaged, single round; baseline: mean of 7-mers; reading: higher = stronger binding
Target: PABPC1L2, full length, GST fusion (mouse, UniProt A0ABA7IW68)
Construct (chain): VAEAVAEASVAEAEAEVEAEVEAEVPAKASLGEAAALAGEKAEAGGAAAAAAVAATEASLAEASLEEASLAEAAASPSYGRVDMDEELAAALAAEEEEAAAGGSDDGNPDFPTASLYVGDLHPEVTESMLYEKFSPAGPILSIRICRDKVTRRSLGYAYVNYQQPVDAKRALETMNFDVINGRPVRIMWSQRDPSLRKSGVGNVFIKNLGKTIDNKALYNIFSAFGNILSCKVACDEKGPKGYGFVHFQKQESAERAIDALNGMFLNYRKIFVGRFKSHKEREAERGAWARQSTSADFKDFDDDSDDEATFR
| Strand | 7-mer Z-score |
| --- | --- |
| CCGGGCG | 0.169 |
| GCUACAC | -0.0591 |
| GCUCCUA | -0.22 |
| CUCGUGC | -0.293 |
| UGAACGG | -0.182 |
| CUUCUUC | -0.458 |
| GUGCGAC | 0.0515 |
| UGUUCGA | -0.266 |
| UUGCAGG | -0.137 |
| UAUAGGG | -0.0627 |
| GCGGCCG | -0.242 |
| CGUUUAA | -0.26 |

Some of these lines once more (set 2):
| Change | relative binding score [%] |
| --- | --- |
| T39F | 1.21 |
| V70M | 4.32 |
| P146F | -7.87 |
| A175L | 12 |
| L156W | 8.98 |
| P83M | -0.393 |
| C72F | 3.63 |
| A30L | 20 |
| L112N | -6.8 |
| P37C | 3.11 |
| F66C | 7.29 |
| S140W | -3.06 |
| R132V | 30.6 |
